Results of several laboratories.
Parts stem from different laboratories: compare values within a part only. Positions count from the first letter of the parent shown.

Block 1
Target: ABI1, truncated, D143A, DHFR fusion (Arabidopsis thaliana)
Method: DHFR PCA, deep sequencing
Sample: yeast
Setting: methotrexate growth selection, single substitutions
Added: (+)-ABA 4.8 µM
Relative to: wild-type fitted maximum
Direction: higher = stronger binding
Parent: PYL1, truncated, DHFR fusion (Arabidopsis thaliana); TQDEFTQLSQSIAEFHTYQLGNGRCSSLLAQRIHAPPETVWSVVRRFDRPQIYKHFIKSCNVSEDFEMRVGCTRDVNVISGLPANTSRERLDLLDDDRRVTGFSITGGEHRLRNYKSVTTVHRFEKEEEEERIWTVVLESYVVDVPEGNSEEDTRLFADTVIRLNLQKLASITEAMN
| Change | relative binding score [%] |
| --- | --- |
| C60Y | 15.8 |
| N177E | 84.1 |
| S9E | 78.8 |
| K168Y | 6.31 |
| Y115S | -0.405 |
| L156F | 60.5 |
| A30K | 72.7 |
| S63F | 20.2 |
| T17E | 31 |
| L138M | 31.3 |
| N114R | 15.6 |
| G71R | 1.43 |
| T173Y | 2.94 |
| S104Q | -5.15 |

Block 2
Target: NFE2L1, bZIP domain (human)
Method: DHFR protein complementation
Sample: yeast
Setting: single substitutions, most at no-binding floor
Relative to: wild-type JUN-FOS pair
Direction: higher = stronger binding
Parent: JUN, bZIP domain (human); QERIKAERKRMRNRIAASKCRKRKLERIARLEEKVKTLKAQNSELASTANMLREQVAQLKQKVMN; partner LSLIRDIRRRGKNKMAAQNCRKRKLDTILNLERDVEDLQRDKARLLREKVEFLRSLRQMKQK
| Change | binding fitness |
| --- | --- |
| E32V | -1.42 natural log |
| V56Q | -1.55 natural log |
| V35H | -1.52 natural log |
| A40Q | -1.47 natural log |
| E32L | -1.49 natural log |
| E33A | -1.58 natural log |
| V35Y | -1.58 natural log |
| E32A | -1.55 natural log |
| V35C | -1.46 natural log |
| A40F | -1.41 natural log |
| S43Q | -1.5 natural log |
| R30Y | -1.12 natural log |
| A57M | -1.23 natural log |
| S47N | -1.42 natural log |
| A46G | -1.52 natural log |
| L38Q | -1.57 natural log |
| A40H | -1.56 natural log |
| L38C | -1.57 natural log |
| S47E | -1.58 natural log |
| Q55A | -1.21 natural log |
| A49D | -1.61 natural log |
| L31D | -1.53 natural log |
| L52T | -1.64 natural log |
| R53L | -1.44 natural log |
| A29W | -1.18 natural log |

Block 3
Target: RING finger protein unkempt homolog, zinc fingers 1-6, SBP tag (UNK, Homo sapiens, UniProt Q9C0B0, residues 30-357)
Chain of UniProt Q9C0B0 (30-357, looked up): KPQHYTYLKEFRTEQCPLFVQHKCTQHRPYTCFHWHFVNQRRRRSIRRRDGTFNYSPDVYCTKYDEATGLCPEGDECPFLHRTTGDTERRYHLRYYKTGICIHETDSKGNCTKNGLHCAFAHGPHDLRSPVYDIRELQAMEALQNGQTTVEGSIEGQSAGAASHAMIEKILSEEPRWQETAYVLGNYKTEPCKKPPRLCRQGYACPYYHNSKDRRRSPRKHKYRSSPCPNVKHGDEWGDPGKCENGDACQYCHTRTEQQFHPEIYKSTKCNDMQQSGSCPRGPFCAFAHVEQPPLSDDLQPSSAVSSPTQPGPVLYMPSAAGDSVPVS
Method: RNA Bind-n-Seq
Form: RNA
Sample: in vitro
Concentration: 100 nM
Setting: RNA with constant flanks, vertebrate orthologous sites, ends assumed
Relative to: input RNA pool
Direction: higher = stronger binding
Constant ends, left off below: GGGAGUUCUACAGUCCGACGAUC … CAACAGAGGAUUGAGCAUCA
| Sequence | bound/input enrichment [ratio] |
| --- | --- |
| GCAAUGAAAAAGCAGCCUUUCUCCCAGUCCCCCUUUCACUAGGAGAUACAAACGUUACCAUAGAAGAGCAAUUAAACUCAAUAAAUUUAUCUUUUCAGGAUGAUCCAGACUCCAGUACCA | 1.39 |
| UGUGAGGGUCUACUGACCGCUCACCACUGAUGUCUGGUAUCUGUAAACACUUUCUGUUCUUAGUCUUUUACUUGUAUAAUUGAUGUUCUUUAAAAUUGUCAGCGUAUAACAGGGCUUAUG | 1.32 |
| UGGGGACAUACUCUGGGGAGCUGCCGGGCGAGUAACAUCGUUUGAUUUAUGACCUUGACUUACUACAUAGGCUUUUUUUUUAAUUUAAAAAUAUUGACUUCACAAAAGUUUAUUCUAAGG | 0.768 |
| UUACACGUAAACUGGUAUUUUCAAACAAUAGGAAACUAUUUUUUUCUUUUUUACAGUUUAUUAUGUAUCUGGCUUGUACACGGAAGACUAAGAAGUUGAUUUGCUAAGUGUGGUCUUUGC | 0.365 |
| GGGACGUUUUGAUGUAAAAAUUGAAGUUAAGAGCUGAUCACAAGCACAAAUCUUUCCCACUAGCCAUUUAAUAAGUAAAAAAGAUACAAAAACAAAAACCUACUAGUCUUGAACAAACUG | 2.06 |
| GGGACGCUUUGAUGUAAAAAUUGAAGUUAAGAGCUGAUCACAAGCACACAUCUUUCCCACUAGCCAUUUAAAAAAGUUAAAAAAGAUACAAAAACCUACUAGUCUUGAACAAACUGUCAU | 1.72 |
| UAAGUAAAAUAUUGGAUGCAACAUAUAAAUGAUCUAAGGCAGUGAUUUCAGCUUUAGAUGUUAGUUUUAAGGUUAUUUACGUUUAUUUAAACUUUUGGAUUGGAUUAUUUGCUAUUGCUU | 0.411 |
| AAAUAUACUUCAUGCCAUGGACUCCAUAUCGCACUGAUACUUUGAUAGAGUAUGCUUCUUUAGAGGACUUCCAAAAUGGACGACAACAGACAACUUACAAACUUCCAAAUCGAGUGGAUG | 1.15 |

Block 4
Target: RNA binding protein fox-1 homolog 2, RRM domain, GST-SBP tag (RBFOX2, Homo sapiens, UniProt O43251-10, residues 100-194)
Method: RNA Bind-n-Seq
Form: RNA
Sample: in vitro
Concentration: 365 nM
Setting: natural RNA segment, single round, ends assumed
Relative to: no-protein control
Direction: higher = stronger binding
Constant ends, left off below: GGGAGUUCUACAGUCCGACGAUC … UGGAAUUCUCGGGUGCCAA
Construct (chain): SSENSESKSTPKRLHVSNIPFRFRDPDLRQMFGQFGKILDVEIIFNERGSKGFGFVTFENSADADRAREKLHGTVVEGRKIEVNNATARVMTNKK
| Sequence | RBNS enrichment (R) |
| --- | --- |
| ACAAAACAGGCAACAUCCGCCCAGUGGACAUGGAGAUUAGAAGUGACUGUAUGGUCCGGGGGGUUCCUGCUGAGGAGAGGGGCUGAGGGUCCCAUGGAGAAGGGGCUGUA | 0.931 |
| GCCUCUGAAGUUUGCAGUAUGCUUUCAAAUGAAAUAAUAUACUUCCAUUGAUUCAGGAAGCAGAUUUUUUGAGUGCCUAUAUGUGAGACAGUGUGCUGGUUGAAGGCCUG | 0.304 |
| AACAGGUCUUUUCUCUCUCCUUUAUGGUACUUCUCAGAACAAGAGAAACUGAGUUAGGGCUUGAGUCAGCAUCCCAGUGCUUUUGUCUAGCUUGGUUCUGGGGUUGAGAA | 0.666 |
| CAUACAGUGGAAGUGCUACCUCUAAUCUAACCAGAGCACCUUCAUGGUGGAAGACACCCACCAGGUCAUACAAUGUGAACUUUUGUAUCUCUGCAGUGGUUUCAAGGACA | 0.321 |
| GUCUACCUGCUGCUCCUACCAACCUGCACUGCAGCCUGGGUAGAGGGCGCUGCCACCACAAGGCCAGCCACUGAGCAGGCAGCUCCCUUCGUCGUCCUCCUGCCCACCCG | 0.337 |
| CCAUCACCUUAGACCACCAAGCCUUGAUUGGUGUUGCCAGUUGUCCUCCUUCCGGGGAAGGAUUUUGCAGUUCUUUGGCUGAAAGGAAGCUGUGCGUGUGUGUGUGUGUA | 0.737 |
| GCCGGAUGCCCCACACACCGCCAGUGUCAUACCAAAGAGCUGAGCUGCUUCGGGGCCAUGCAGCCCUCCUGCCAGCCCCCUGCCCUUUUCUUGCCCUGUCUCUGAACCUU | 0.315 |
| AUCUGCGACUCAGUUGAUUGGCUGCUCUCUGAAGAGGAAGAGGAGAAAGCCAGAGAGUCACUCUUACCUCCCUGUCUGCUUACUCACCCACUCUGUCCUUUCCUCACCAA | 0.426 |

Further values, each from its own experiment
| Substance | target | assay | test system | conditions | scale | measurement | value |
| --- | --- | --- | --- | --- | --- | --- | --- |
| PhoQ, residues 284 288 289 292 302 303 SLANKL | PhoP, residues 12 14 15 18 19 FWNTL (Escherichia coli, UniProt P23836) | Sort-seq, item: YFP reporter | E. coli | PhoQ-PhoP variant library, added: 10 µM Mg2+ | relative to: high Mg2+ state, higher = stronger signaling | fold induction | 13.3 |

Repeated from above (block 2):
| Change | binding fitness |
| --- | --- |
| A46G | -1.52 natural log |
| A29W | -1.18 natural log |
| L31D | -1.53 natural log |
| R30Y | -1.12 natural log |
| S43Q | -1.5 natural log |
| S47E | -1.58 natural log |
| V35C | -1.46 natural log |
| A40F | -1.41 natural log |
| V35Y | -1.58 natural log |
